Experimental data collected from several papers.
A part holds a random share of what one study measured.
Chain of UniProt P28566 (whole entry, looked up): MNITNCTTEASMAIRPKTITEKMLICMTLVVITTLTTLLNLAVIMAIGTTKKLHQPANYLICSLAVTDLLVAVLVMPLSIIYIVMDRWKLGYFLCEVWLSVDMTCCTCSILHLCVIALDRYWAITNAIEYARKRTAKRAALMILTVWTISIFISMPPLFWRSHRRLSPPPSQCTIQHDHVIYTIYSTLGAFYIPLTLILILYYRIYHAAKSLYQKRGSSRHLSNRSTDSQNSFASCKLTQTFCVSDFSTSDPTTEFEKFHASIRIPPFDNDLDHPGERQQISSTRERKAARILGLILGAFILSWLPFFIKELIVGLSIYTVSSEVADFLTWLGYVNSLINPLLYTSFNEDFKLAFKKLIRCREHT
Chain of UniProt Q99640 (whole entry, looked up): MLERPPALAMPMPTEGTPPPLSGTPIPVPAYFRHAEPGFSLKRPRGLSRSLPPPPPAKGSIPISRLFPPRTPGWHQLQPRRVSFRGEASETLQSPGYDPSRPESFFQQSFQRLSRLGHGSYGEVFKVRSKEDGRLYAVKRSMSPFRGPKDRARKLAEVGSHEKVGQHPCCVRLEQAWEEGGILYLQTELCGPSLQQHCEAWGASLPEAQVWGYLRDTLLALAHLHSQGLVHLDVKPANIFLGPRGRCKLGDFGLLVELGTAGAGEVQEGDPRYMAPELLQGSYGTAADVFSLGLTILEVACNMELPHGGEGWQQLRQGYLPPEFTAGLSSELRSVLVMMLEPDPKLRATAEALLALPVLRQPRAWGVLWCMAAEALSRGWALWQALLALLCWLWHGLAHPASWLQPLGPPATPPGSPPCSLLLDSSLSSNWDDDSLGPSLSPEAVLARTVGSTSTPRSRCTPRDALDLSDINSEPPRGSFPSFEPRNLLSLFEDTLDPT
Chain of UniProt Q16659 (whole entry, looked up): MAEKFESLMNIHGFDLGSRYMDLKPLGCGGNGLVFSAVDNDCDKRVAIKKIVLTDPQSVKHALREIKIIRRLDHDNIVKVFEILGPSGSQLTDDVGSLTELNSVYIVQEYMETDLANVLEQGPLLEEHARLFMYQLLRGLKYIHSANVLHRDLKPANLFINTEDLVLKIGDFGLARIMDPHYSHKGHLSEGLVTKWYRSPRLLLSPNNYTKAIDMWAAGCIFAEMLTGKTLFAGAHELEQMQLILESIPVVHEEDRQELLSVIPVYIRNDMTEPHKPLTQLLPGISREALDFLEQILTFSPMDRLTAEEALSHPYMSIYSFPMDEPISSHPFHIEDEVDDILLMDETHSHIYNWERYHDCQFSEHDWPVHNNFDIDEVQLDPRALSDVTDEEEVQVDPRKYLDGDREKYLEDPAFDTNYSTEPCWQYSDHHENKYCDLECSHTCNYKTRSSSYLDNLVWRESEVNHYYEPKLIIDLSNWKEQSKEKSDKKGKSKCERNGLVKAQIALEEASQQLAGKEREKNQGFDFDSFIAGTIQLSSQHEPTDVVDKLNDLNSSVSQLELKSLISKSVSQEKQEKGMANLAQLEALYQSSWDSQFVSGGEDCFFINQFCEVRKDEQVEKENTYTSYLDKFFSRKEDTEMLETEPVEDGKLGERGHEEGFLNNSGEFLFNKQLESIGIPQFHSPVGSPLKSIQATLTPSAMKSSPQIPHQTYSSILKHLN
Chain of UniProt P46098 (whole entry, looked up): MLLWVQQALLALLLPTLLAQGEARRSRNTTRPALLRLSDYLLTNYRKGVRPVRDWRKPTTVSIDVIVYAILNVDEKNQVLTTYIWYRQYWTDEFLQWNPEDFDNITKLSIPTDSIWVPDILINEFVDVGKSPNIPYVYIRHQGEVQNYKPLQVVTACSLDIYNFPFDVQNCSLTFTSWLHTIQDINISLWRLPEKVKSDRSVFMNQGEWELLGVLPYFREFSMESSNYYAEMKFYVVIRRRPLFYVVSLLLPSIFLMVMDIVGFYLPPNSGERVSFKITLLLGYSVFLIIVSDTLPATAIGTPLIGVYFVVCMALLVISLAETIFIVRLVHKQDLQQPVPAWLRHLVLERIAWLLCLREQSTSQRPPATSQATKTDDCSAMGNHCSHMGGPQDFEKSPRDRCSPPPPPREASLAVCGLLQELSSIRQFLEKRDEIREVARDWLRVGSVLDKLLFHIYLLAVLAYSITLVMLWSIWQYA
Chain of UniProt P07948 (whole entry, looked up): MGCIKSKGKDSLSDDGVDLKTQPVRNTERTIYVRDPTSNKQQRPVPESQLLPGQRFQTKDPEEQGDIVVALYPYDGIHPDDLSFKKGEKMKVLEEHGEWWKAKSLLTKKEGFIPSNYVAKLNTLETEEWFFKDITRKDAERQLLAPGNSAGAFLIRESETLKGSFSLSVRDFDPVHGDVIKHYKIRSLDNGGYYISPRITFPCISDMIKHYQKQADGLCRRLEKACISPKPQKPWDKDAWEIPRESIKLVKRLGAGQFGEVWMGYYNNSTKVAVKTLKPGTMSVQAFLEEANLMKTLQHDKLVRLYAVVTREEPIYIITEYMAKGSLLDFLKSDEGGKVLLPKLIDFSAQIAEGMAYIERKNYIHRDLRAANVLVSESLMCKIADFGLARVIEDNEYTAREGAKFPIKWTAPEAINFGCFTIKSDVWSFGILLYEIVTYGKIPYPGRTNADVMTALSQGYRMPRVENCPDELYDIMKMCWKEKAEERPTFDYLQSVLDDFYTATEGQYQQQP
Chain of UniProt P30291 (whole entry, looked up): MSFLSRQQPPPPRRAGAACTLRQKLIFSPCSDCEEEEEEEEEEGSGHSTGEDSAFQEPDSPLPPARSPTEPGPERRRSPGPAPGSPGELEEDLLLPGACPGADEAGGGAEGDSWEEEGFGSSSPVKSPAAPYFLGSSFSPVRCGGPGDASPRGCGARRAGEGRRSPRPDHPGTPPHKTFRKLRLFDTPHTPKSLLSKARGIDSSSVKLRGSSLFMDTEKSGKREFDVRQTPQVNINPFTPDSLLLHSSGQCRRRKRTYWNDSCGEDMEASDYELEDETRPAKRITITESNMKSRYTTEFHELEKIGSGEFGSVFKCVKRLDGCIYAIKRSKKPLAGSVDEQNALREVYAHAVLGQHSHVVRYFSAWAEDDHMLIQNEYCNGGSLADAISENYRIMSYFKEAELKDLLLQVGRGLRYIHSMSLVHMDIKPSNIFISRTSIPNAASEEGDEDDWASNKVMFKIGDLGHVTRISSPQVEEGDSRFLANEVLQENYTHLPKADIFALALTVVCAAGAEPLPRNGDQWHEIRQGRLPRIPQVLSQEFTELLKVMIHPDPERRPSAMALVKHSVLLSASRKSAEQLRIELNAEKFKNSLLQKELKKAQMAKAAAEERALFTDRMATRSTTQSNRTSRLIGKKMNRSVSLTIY
Chain of UniProt Q9NYL2 (whole entry, looked up): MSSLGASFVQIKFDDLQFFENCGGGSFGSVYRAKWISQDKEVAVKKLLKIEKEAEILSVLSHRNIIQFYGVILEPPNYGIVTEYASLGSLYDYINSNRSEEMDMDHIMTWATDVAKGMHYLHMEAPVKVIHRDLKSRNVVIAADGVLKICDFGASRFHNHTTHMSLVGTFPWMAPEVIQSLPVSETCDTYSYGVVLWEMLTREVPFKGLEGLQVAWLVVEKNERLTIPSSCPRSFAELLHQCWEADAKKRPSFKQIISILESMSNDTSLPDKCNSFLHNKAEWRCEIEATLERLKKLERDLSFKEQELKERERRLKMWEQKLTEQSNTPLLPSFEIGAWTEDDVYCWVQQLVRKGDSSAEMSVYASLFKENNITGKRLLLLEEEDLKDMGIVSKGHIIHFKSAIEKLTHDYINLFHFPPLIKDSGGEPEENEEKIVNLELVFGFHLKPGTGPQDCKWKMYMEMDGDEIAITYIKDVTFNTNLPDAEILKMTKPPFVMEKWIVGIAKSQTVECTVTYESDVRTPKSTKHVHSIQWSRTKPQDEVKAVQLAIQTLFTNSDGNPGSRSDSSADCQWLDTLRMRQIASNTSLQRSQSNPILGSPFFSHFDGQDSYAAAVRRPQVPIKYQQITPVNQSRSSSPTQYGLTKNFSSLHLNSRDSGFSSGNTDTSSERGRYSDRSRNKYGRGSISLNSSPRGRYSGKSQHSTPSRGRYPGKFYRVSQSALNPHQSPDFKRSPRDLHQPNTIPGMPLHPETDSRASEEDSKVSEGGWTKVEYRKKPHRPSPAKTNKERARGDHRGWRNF
Chain of UniProt P28221 (whole entry, looked up): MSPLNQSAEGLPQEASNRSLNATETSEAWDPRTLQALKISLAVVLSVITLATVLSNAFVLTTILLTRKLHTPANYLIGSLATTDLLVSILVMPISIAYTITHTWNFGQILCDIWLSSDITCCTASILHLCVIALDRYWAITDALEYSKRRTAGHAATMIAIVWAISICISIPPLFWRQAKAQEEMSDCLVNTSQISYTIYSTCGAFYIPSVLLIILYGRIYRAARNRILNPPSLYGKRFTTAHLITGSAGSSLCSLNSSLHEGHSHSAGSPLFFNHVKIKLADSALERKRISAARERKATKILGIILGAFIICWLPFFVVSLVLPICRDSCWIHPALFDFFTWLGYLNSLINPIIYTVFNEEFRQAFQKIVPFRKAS
Chain of UniProt P36896 (whole entry, looked up): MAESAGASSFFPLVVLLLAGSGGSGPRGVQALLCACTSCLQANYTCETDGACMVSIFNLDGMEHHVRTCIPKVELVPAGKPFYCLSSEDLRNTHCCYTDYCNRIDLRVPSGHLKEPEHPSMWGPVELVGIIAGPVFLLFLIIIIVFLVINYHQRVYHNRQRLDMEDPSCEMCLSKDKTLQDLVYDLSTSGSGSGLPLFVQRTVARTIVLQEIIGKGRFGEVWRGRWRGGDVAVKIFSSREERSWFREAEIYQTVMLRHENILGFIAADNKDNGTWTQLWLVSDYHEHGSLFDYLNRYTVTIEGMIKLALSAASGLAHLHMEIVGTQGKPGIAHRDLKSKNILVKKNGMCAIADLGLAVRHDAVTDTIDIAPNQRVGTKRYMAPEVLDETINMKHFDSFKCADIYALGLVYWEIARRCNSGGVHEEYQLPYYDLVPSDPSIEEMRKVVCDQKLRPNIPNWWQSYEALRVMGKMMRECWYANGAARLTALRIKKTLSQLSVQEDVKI

Block 1
Target: panel of 300 human kinases
Concentration: 0.5 µM
Direction: higher = more selective
| Structure (SMILES) | Gini score |
| --- | --- |
| O=c1c(-c2ccc(F)cc2)c(-c2ccncc2)[nH]n1-c1ccc(Cl)cc1 | 0.62 |
| O=C1NC(=O)/C(=C/c2ccc3c(c2)OC(F)(F)O3)S1 | 0.63 |
| O=C1NC(=O)C(c2cn(CCCO)c3ncccc23)=C1c1cnccn1 | 0.63 |
| N#CC(C#N)=C(N)/C(C#N)=C/c1ccc(O)cc1 | 0.61 |
| NC(=O)c1ccc(-c2nc(-c3ccc4c(c3)OCCO4)c(-c3ccccn3)[nH]2)cc1 | 0.68 |
| O=c1c2ccccc2[nH]c(=S)n1CCN1CCC(=C(c2ccc(F)cc2)c2ccc(F)cc2)CC1 | 0.74 |
| O=C(CCCc1ccc(-c2ccccc2F)cc1)Nc1ccc(O)cc1 | 0.71 |
| Oc1ccc(-c2nc(-c3ccncc3)c(-c3ccc(F)cc3)[nH]2)cc1 | 0.76 |

Block 2
Compound: CC(=O)Nc1c(F)cc(C(=O)N[C@H]2CC[C@H](O)CC2)cc1O[C@@H](C)c1ccccc1
Observed: binding
Technique: radioligand binding
Concentration: 10 µM
| target | inhibition |
| --- | --- |
| HTR2B (Homo sapiens, UniProt P41595) | -6.98% |
| HTR1D (Homo sapiens, UniProt P28221) | 84.2% |
| HTR1E (Homo sapiens, UniProt P28566) | -15.4% |
| HTR3A (Homo sapiens, UniProt P46098) | 3.77% |

Block 3
Compound: CN1CCN(C(=O)c2ccc(NC(=O)Nc3ccc(N(C)c4ccnc(Nc5ccc(CS(C)(=O)=O)cc5)n4)cc3)cc2)CC1
Observed: binding
Concentration: 1 µM
| target | test | remaining binding |
| --- | --- | --- |
| MAP3K20 (Homo sapiens, UniProt Q9NYL2) | competition with immobilised ligand | 86% |
| LYN (Homo sapiens, UniProt P07948) | competition with immobilised ligand | 71% |
| SRPK1 (Homo sapiens, UniProt Q96SB4) |  | 2.3% |
| DCLK2 (Homo sapiens, UniProt Q8N568) |  | 79% |
| Insulin receptor (INSR, Homo sapiens, UniProt P06213) |  | 61% |
| WEE1 (Homo sapiens, UniProt P30291) | competition with immobilised ligand | 100% |
| PIK3CA (Homo sapiens, UniProt P42336, E545A) |  | 100% |
| TNK2 (Homo sapiens, UniProt Q07912) | competition with immobilised ligand | 6.5% |
| MAPK6 (Homo sapiens, UniProt Q16659) |  | 100% |
| ACVR1B (Homo sapiens, UniProt P36896) | competition with immobilised ligand | 77% |
| PKMYT1 (Homo sapiens, UniProt Q99640) | competition with immobilised ligand | 96% |

Mixed results
| SMILES | test system | measurement | value |
| --- | --- | --- | --- |
| CCOC(=O)[C@@H]1CSCC(=O)N[C@H](CC)C(=O)N(C)[C@@H](C)C(=O)N[C@H](CC(C)C)C(=O)N2CCC[C@H]2C(=O)N(CC)CC(=O)N[C@H](CC(C)C)C(=O)N(C)[C@@H](C)C(=O)N[C@@H](CC(C)C)C(=O)N1C | hydrocarbon/water | logD | 1.22 |

Repeated from above (block 3):
| target | test | remaining binding |
| --- | --- | --- |
| LYN (Homo sapiens, UniProt P07948) | competition with immobilised ligand | 71% |
| Insulin receptor (INSR, Homo sapiens, UniProt P06213) |  | 61% |
